Measured values collected from several papers.
Each line is one published result; not all experiments were run side by side. Several values in a cell are separate wells, animals, samples, runs or records.
Target: NT-3 growth factor receptor (NTRK3, Homo sapiens, UniProt Q16288)

| Compound | assay | setting | scale | measurement | value |
| --- | --- | --- | --- | --- | --- |
| NC(=O)[C@@H](O)C[C@H]1CCc2sc3ncnc(O[C@H]4CC[C@H](N5CCOCC5)CC4)c3c21 | enzyme activity, inhibitor | 10 µM | – | inhibition | 67% |
| COc1cc(NC(=O)Nc2cc(C(F)(F)F)ccc2F)ccc1C(=O)Nc1ccc2[nH]ncc2c1 | enzyme activity, inhibitor, FRET | 1 µM | – | inhibition | 15.3% |
| C=CC(=O)Nc1cccc(-c2cnc3[nH]cc(C(=O)NC(C)(C)C)c3n2)c1 | kinase activity | 0.1 µM | – | inhibition | -15% and -3% |
| COc1c(Cl)cccc1Nc1c(-c2ccncc2C#C[C@@]2(C)CCCN2C(=O)/C=C/CN(C)C)[nH]c2c1C(=O)NCC2 | cell-free assay, competition with immobilised ligand | 3 µM | – | remaining binding | 69% |
| O=C(Nc1ccc(C(=O)Nc2ccc3[nH]ncc3c2)cc1F)Nc1cc(C(F)(F)F)ccc1F | enzyme activity, inhibitor, FRET | 1 µM | – | inhibition | 29.2% |
| C=CC(=O)N1CCc2ccc(-n3c(=O)ccc4cnc5ccc(-c6cnn(C)c6)cc5c43)cc21 | KINOMEscan | 1 µM | relative to: DMSO control | remaining binding | 100% |
| CN1CCN(Cc2ccc(-c3ccc(CO[C@H]4CCC[C@@H]4NC(=O)c4cc(-c5cnn(C)c5)cnc4N)cc3)cc2)CC1 | enzyme activity, inhibitor | 0.1 µM | – | inhibition | 1% |
| C=CC(=O)N1Cc2nc(-c3cc(-c4cc(Cl)cnc4Cl)c(F)cc3F)n(-c3ccncn3)c2C1 | cell-free assay | 1 µM | – | inhibition | 5.4% |
| O=C(Nc1cc(C(F)(F)F)ccc1F)Nc1ccc(C(=O)Nc2ccc3[nH]ncc3c2)cc1C(F)(F)F | enzyme activity, inhibitor, FRET | 1 µM | – | inhibition | 29.7% |
| Cc1cccc(O[C@H]2CCC[C@@H](C(C)CNCc3ccncc3)C2)c1 (relative stereo) | cell-free assay | 10 µM | – | inhibition | -8% |
| CCN1CCN(Cc2ccc(NC(=O)c3ccc(C)c(NC(=O)c4cncc(-c5cnn(C)c5)c4)c3)cc2C(F)(F)F)CC1 | binding, competition with immobilised ligand | 1 µM | – | remaining binding | 6.6% |
| CNC(=O)C[C@H](Cc1ccc(C#N)cc1)NC(=O)c1cc(-c2ccc(CN[C@H](C)c3ccc(C)cc3)o2)ccc1Cl | enzyme activity, inhibitor | 1 µM | – | activity vs control | 91% |
| CNC1C[S+]2CC[S+]3CC[S+](C1)[Ru-4]321([N]=C=S)[n]2c3ccc(OC)cc3c3c4c(c5cc(F)c[n+]1c5c32)C(=O)NC4=O (centres unmarked) | KinomeScan | 0.1 µM | relative to: untreated | remaining binding | 99% |
| O=C(Nc1ccc(C(=O)Nc2ccc3[nH]ncc3c2)c(Cl)c1)Nc1cc(C(F)(F)F)ccc1F | enzyme activity, inhibitor, FRET | 1 µM | – | inhibition | 25.8% |
| COCC12C(=O)NC3C4(C(OC)CC1O)C1CC5(O)C(OC)C(O)C(OC(C)=O)(C1C5OC(=O)c1ccccc1)C3(O)C(OC)C24 (centres unmarked) | kinase activity, inhibitor, ProQinase kinase profiling | 25 µM | relative to: control | remaining activity | 117% and 112% |
| CCn1cc(C(=O)O)c(=O)c2c(N)c(F)c(NC3CCCCC3)cc21 | kinase activity | 0.1 µM, added: ATP at Km | – | inhibition | 9.9% |
| Nc1ncc2c(n1)-c1c([nH]c3ccc(C4=CCOCC4)cc13)CCC2 | binding, competition with immobilised ligand | 1 µM | – | remaining binding | 97% |
| O=C(Nc1ccc(C(=O)Nc2ccc3[nH]ncc3c2)c(F)c1)Nc1cc(C(F)(F)F)ccc1F | enzyme activity, inhibitor, FRET | 1 µM | – | inhibition | 13.7% |
| COc1ccc(S(=O)(=O)N2CCc3ccccc3C2)cc1N1CCN(C(=O)c2ccc(F)cc2C(F)(F)F)CC1 | enzyme activity, inhibitor | 1 µM | – | inhibition | -15.8% |
| COc1cc(Nc2nc(C)cc(-c3cnn4nc(OC)ccc34)n2)cc(C(F)(F)F)c1 | binding, competition with immobilised ligand | 1 µM | – | remaining binding | 84% |

For quick reference, copied from above:
| Compound | assay | setting | scale | measurement | value |
| --- | --- | --- | --- | --- | --- |
| O=C(Nc1cc(C(F)(F)F)ccc1F)Nc1ccc(C(=O)Nc2ccc3[nH]ncc3c2)cc1C(F)(F)F | enzyme activity, inhibitor, FRET | 1 µM | – | inhibition | 29.7% |
| Cc1cccc(O[C@H]2CCC[C@@H](C(C)CNCc3ccncc3)C2)c1 (relative stereo) | cell-free assay | 10 µM | – | inhibition | -8% |
| CCN1CCN(Cc2ccc(NC(=O)c3ccc(C)c(NC(=O)c4cncc(-c5cnn(C)c5)c4)c3)cc2C(F)(F)F)CC1 | binding, competition with immobilised ligand | 1 µM | – | remaining binding | 6.6% |
